{"data": "Experimental data from different studies", "note": "Each line is one published result; not all experiments were run side by side. Values joined by “and” are separate records of one study, mostly repeats; a detail may differ. ± marks the error that the study gave.", "chain of UniProt Q13554 (whole entry, looked up)": "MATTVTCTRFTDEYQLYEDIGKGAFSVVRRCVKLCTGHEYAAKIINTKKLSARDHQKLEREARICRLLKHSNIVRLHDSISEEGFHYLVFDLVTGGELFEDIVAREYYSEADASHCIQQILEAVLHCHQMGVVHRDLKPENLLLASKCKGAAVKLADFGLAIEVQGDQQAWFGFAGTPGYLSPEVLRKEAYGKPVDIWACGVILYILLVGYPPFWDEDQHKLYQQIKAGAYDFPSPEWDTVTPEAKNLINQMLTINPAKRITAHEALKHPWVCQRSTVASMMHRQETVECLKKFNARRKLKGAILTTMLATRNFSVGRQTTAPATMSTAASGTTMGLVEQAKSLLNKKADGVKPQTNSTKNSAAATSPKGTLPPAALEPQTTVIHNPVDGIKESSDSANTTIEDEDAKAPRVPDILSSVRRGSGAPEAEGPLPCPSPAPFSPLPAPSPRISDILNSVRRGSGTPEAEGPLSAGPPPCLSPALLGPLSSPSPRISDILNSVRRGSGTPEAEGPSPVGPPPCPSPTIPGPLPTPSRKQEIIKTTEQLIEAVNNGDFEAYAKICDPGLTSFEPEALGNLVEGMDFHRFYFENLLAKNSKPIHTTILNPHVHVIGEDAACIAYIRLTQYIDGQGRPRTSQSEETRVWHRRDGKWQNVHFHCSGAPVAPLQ", "chain of UniProt Q15131 (whole entry, looked up)": "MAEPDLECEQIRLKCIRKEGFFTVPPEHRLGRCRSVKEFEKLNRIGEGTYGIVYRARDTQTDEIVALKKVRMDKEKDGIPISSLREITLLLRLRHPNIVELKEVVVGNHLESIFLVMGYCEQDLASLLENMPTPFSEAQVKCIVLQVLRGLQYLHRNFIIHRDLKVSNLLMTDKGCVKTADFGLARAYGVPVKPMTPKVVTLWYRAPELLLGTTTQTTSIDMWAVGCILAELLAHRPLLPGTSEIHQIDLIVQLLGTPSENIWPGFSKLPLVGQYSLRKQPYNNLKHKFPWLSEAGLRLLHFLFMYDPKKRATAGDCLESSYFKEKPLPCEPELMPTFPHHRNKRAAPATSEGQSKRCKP", "chain of UniProt Q14680 (whole entry, looked up)": "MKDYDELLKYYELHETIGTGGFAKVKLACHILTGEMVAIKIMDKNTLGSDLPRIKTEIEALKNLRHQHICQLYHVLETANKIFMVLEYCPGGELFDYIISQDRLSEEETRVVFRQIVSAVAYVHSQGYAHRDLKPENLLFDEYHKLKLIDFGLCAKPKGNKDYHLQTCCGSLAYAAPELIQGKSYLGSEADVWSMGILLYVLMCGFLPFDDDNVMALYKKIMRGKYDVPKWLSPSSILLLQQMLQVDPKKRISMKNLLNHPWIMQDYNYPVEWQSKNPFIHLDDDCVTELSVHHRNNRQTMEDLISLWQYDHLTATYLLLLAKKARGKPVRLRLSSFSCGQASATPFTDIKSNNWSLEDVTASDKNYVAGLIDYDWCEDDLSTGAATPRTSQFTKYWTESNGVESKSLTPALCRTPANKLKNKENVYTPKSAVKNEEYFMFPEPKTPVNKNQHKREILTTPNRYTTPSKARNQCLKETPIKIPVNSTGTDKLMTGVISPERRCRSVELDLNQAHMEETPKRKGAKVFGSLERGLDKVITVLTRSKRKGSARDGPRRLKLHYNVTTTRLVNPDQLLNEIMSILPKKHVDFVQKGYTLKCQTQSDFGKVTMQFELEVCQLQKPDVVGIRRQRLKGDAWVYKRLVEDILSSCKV"}
{"Structure (SMILES)": "CN(C)[C@H]1C[C@@]23CC[C@@]4(O2)C(=CC[C@]2(C)[C@@H](c5ccc6ccncc6c5)CC[C@H]24)C=C3[C@@H](O)[C@@H]1O", "target or system": "Cyclin-dependent kinase 10 (CDK10, Homo sapiens, UniProt Q15131)", "assay": "ATP probe labelling, inhibitor, KiNativ profiling", "conditions": "0.1 µM", "endpoint": "inhibition", "value": "-2.8%"}
{"Structure (SMILES)": "O=C1NC2(CC2)COc2ncc(F)cc2[C@H]2COCCN2c2ccn3ncc1c3n2", "system": "Sprague-Dawley rat, male, serum", "conditions": "oral, 5 mg/kg/day, end of recovery, 4-week subacute toxicity", "endpoint": "serum sodium", "value": "145 ± 2 mmol/L"}
{"Structure (SMILES)": "CC(C)[C@H]1NC(=O)C[C@H]2/C=C/CCSSC[C@@H](NC1=O)C(=O)N[C@H](Cc1cccc3ccccc13)C(=O)NCC(=O)O2", "target or system": "Calcium/calmodulin-dependent protein kinase type II subunit beta (CAMK2B, Homo sapiens, UniProt Q13554)", "assay": "enzyme activity, inhibitor", "conditions": "10 µM", "endpoint": "inhibition", "value": "-0.9%"}
{"Structure (SMILES)": "CNC(=O)C[C@H](Cc1ccncc1)NC(=O)[C@@H](Cc1cccc(Br)c1)NC(=O)[C@@H](N)Cc1ccsc1", "target or system": "Huh-7-ACE2", "assay": "CellTiter-Glo", "conditions": "0.000763 µM, 48 h, unit not given", "how to read": "baseline: DMSO", "endpoint": "viability", "value": "0.931 and 0.909 and 0.961"}
{"Structure (SMILES)": "CC[C@H](C)[C@H](N)C(=O)N[C@@H](CCCNC(=N)N)C(=O)N[C@H](C(=O)N[C@@H](Cc1c[nH]c2ccccc12)C(=O)N[C@@H](Cc1ccccc1)C(=O)N[C@H](C(=O)N[C@@H](CCCCN)C(=O)N[C@H](C(=O)N[C@@H](CCCNC(=N)N)C(=O)N[C@@H](CCCCN)C(=O)N[C@@H](CCSC)C(=O)N[C@@H](CCCCN)C(=O)N[C@@H](C)C(=O)N[C@H](C(=O)N[C@@H](Cc1ccc(O)cc1)C(=O)N[C@@H](Cc1c[nH]cn1)C(=O)N[C@H](C(N)=O)[C@@H](C)O)[C@@H](C)CC)C(C)C)[C@@H](C)CC)C(C)C", "target or system": "rat erythrocytes", "conditions": "200 µM, 60 min, 37 °C", "endpoint": "hemolysis", "value": "0.6 ± 0.4%"}
{"Structure (SMILES)": "CC[C@H](C)[C@H](NC(=O)[C@H](C)NC(=O)[C@H](CCCCN)NC(=O)[C@H](CC(C)C)NC(=O)[C@@H](N)Cc1ccccc1)C(=O)N[C@@H](CCCCN)C(=O)N[C@@H](CCCCN)C(=O)N[C@@H](Cc1ccccc1)C(=O)NCC(=O)N[C@@H](CCCCN)C(=O)N[C@@H](CCC(=O)O)C(=O)N[C@@H](Cc1ccccc1)C(=O)N[C@@H](CCCCN)C(=O)N[C@@H](CCCCN)C(=O)N[C@H](C(=O)NCC(=O)N[C@@H](C)C(=O)N[C@@H](CCCCN)C(=O)N[C@@H](CC(C)C)C(=O)N[C@@H](CCCCN)C(=O)O)[C@@H](C)CC", "target or system": "HeLa", "assay": "MTT", "conditions": "64 mg/L", "how to read": "baseline: untreated", "endpoint": "cell growth", "value": "96.8% and 90.4% and 93%"}
{"Structure (SMILES)": "CN(C)CCCNC(=O)[C@@H]1NC(=O)[C@@H]2Cc3ccc(cc3)Oc3cc4cc(c3O)-c3ccc5c(c[nH]c5c3)C[C@@H](NC(=O)C(NC(=O)CCCCCN)c3ccc(O)cc3)C(=O)N[C@H](c3ccc(O)cc3)C(=O)N[C@H]4C(=O)N[C@@H](C(=O)N2C)c2ccc(cc2)Oc2cc1ccc2O (stereo partly drawn)", "target or system": "human red blood cells", "system": "PBS", "conditions": "128 µg/mL, 1 h, pH 7.4, 37 °C", "endpoint": "hemolysis", "value": "0% and 2.84%"}
{"Structure (SMILES)": "COC(=O)/C=C/c1ccc(O)c(O)c1", "target or system": "HaCaT", "assay": "cell growth or viability, MTT", "conditions": "24 h", "endpoint": "CC50", "value": "194 µM"}
{"Structure (SMILES)": "CNC(=O)CC[C@H](Cc1ccccc1)NC(=O)[C@@H](Cc1ccc(Cl)cc1Cl)NC(=O)[C@H](N)Cc1ccccc1[N+](=O)[O-]", "target or system": "Huh-7-ACE2", "assay": "CellTiter-Glo", "conditions": "1.562 µM, 48 h, unit not given", "how to read": "baseline: DMSO", "endpoint": "viability", "value": "0.986 and 1.04 and 1.07"}
{"Structure (SMILES)": "CC(=O)c1c(O)c(C)c(O)c2c1OC1=CC(=O)C(=C(C)NCCCCOC3OC4OC5(C)CCC6C(C)CCC(C3C)C46OO5)C(=O)C12C (mixture of isomers)", "target or system": "L6 rat skeletal myoblasts", "assay": "cytotoxicity, Alamar Blue", "endpoint": "IC50", "value": "0.015 µM"}
{"Structure (SMILES)": "CC(C)(C)C(=O)OCOP(=O)(OCOC(=O)C(C)(C)C)C1CCCN(O)C1=O (stereo not drawn)", "target or system": "MDA-MB-435", "endpoint": "log GI50", "value": "-6.02 log M"}
{"Structure (SMILES)": "C[C@@H]1CC[C@H]2[C@@H](C)C(=O)O[C@@H]3O[C@@]4(C)CC[C@@H]1[C@]32OO4", "target or system": "HEK-293T", "assay": "cell growth or viability, CCK-8", "conditions": "48 h", "endpoint": "CC50", "value": "> 100 µM"}
{"Structure (SMILES)": "CS(C)(=O)=Nc1ccc(-c2ccc(-c3nc4cc(O[C@@H]5CO[C@H]6[C@@H]5OC[C@H]6O)[nH]c4cc3F)cc2)cc1", "target or system": "Maternal embryonic leucine zipper kinase (MELK, Homo sapiens, UniProt Q14680)", "assay": "enzyme activity, inhibitor", "conditions": "10 µM", "endpoint": "inhibition", "value": "3%"}
{"Structure (SMILES)": "CC[C@H](C)[C@H](NC(=O)[C@@H](NC(=O)[C@H](CCCNC(=N)N)NC(=O)[C@H](CCCNC(=N)N)NC(=O)[C@@H](NC(=O)[C@H](Cc1c[nH]c2ccccc12)NC(=O)[C@H](CCCNC(=N)N)NC(=O)[C@H](Cc1c[nH]c2ccccc12)NC(=O)[C@H](CC(C)C)NC(=O)[C@H](CCCNC(=N)N)NC(=O)[C@H](CCCNC(=N)N)NC(=O)[C@@H](N)C(C)C)[C@@H](C)CC)C(C)C)C(N)=O", "target or system": "sheep red blood cells", "assay": "10% haemolysis", "conditions": "1 h, 37 °C", "endpoint": "minimum haemolytic concentration", "value": "40 µM"}
{"Structure (SMILES)": "CC1CCC(C(C)(C)C(=O)Nc2ccc(Oc3ccccc3)cc2)CC1 (stereo not drawn)", "target or system": "BaF3", "assay": "cell growth or viability, ATP luminescence", "conditions": "72 h", "endpoint": "IC50", "value": "> 12.5 µM"}
{"note": "A few entries again:"}
{"Structure (SMILES)": "CN(C)[C@H]1C[C@@]23CC[C@@]4(O2)C(=CC[C@]2(C)[C@@H](c5ccc6ccncc6c5)CC[C@H]24)C=C3[C@@H](O)[C@@H]1O", "target or system": "Cyclin-dependent kinase 10 (CDK10, Homo sapiens, UniProt Q15131)", "assay": "ATP probe labelling, inhibitor, KiNativ profiling", "conditions": "0.1 µM", "endpoint": "inhibition", "value": "-2.8%"}
{"Structure (SMILES)": "CC(C)(C)C(=O)OCOP(=O)(OCOC(=O)C(C)(C)C)C1CCCN(O)C1=O (stereo not drawn)", "target or system": "MDA-MB-435", "endpoint": "log GI50", "value": "-6.02 log M"}
